Results collected from several papers.
A part holds a random share of what one study measured.

Set 1 — method: protein binding microarray; molecule type: double-stranded DNA, one strand shown; sample: in vitro; concentration: not given; baseline: not given; reading: higher = stronger binding; measurement: E-score
Target: Histone acetyltransferase KAT6A, winged helix 2, GST fusion (KAT6A, Homo sapiens, UniProt Q92794, residues 85-181)
Setting: 8-mer, flanks averaged, mean of 2 arrays, mostly near background
Residues (chain): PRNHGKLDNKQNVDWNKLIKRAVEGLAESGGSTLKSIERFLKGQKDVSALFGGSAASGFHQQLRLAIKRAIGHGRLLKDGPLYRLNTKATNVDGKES
CCTTAATC: 0.0287
AGGCCGAT: 0.112
CATCAAGC: 0.079
AACCACGC: -0.121
CCGAGCAG: 0.136
CTGACCAG: 0.124
CAGAAAGC: -0.0853
GAAATCAA: 0.0523
AGCGGCCT: 0.107
ATCCTAGC: -0.0437
GAGGTGTA: -0.273
GTATGTAA: -0.163
CCTGTGCA: -0.103
CATCCGTC: -0.0935
GGCTCTTA: 0.0304
CCGTCCGA: 0.0739

Set 2 — method: universal PBM; molecule type: double-stranded DNA, one strand shown; sample: in vitro; concentration: 600 nM; reading: higher = stronger binding; measurement: E-score
Target: Sal-like protein 4, full length isoform A (SALL4, Homo sapiens, UniProt Q9UJQ4, residues 1-1053)
Sequence of UniProt Q9UJQ4 (whole entry, looked up): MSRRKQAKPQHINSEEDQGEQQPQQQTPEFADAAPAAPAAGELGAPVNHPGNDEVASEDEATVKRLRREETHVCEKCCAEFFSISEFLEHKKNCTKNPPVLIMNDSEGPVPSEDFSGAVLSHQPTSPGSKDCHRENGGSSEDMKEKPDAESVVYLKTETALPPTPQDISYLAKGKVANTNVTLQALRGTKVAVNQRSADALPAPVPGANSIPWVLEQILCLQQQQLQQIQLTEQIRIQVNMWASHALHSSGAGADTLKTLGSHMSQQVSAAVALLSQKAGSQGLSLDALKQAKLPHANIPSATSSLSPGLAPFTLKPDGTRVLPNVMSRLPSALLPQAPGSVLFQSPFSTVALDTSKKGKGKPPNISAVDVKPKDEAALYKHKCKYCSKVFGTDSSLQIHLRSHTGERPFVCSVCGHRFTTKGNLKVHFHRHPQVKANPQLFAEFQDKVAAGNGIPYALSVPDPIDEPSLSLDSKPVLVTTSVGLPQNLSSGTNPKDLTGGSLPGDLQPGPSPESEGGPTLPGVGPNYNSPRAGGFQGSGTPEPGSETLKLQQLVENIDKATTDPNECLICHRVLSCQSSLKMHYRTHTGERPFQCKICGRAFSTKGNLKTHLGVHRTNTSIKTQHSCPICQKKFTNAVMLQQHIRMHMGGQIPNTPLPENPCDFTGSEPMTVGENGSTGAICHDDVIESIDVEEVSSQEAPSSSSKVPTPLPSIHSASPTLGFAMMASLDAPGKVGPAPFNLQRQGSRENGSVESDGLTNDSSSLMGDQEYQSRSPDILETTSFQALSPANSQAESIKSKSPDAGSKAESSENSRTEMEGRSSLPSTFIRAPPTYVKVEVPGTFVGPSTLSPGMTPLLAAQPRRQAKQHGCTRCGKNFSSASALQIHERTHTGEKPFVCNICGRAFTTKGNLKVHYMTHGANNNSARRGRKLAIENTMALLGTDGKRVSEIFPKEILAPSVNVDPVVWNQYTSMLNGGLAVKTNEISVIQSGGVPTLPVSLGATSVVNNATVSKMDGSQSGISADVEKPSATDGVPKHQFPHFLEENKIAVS
Setting: 8-mer, flanks averaged, mean of replicates
CAATGGCG: -0.305
GAGGATCC: -0.299
AATTGCAT: 0.279
ATAAGCCC: -0.0472
CCAGTGAC: -0.253
CATTGGCG: -0.156
CAGCTCCG: -0.209
GCGGAACA: -0.252
AACCCATA: 0.264
TAACCCGA: -0.139
CCCGTGCC: -0.373

Set 3 — method: protein-binding microarray; molecule type: double-stranded DNA, one strand shown; sample: in vitro; concentration: not given; reading: higher = stronger binding; measurement: E-score
Target: Protein C-ets-1 (ETS1, Homo sapiens, UniProt P14921, residues 1-441, full length assumed)
Setting: k-mer, scored over probes, only values ≥0.25
Residues (chain): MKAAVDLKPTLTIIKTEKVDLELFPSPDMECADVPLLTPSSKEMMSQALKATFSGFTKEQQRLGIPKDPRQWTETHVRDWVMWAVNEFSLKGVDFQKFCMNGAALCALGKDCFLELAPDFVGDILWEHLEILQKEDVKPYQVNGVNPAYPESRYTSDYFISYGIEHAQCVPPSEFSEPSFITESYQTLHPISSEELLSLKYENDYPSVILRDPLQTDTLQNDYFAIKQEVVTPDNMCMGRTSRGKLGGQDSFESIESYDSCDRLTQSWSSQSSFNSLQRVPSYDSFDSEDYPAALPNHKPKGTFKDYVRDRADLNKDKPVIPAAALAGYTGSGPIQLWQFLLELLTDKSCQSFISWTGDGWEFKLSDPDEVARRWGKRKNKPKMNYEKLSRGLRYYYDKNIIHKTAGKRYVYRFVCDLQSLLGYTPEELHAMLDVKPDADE
AGATTTCC: 0.397
CATACCGG: 0.275
GAGCCGGA: 0.318
TCAGGAAA: 0.401
AGGGAAAT: 0.275
CGATATCC: 0.347

Other studies, line by line
PhoQ, residues 284 288 289 292 302 303 AGHLVA — fold induction (PhoP, residues 12 14 15 18 19 AQCLL (Escherichia coli, UniProt P23836); Sort-seq, item: YFP reporter; E. coli; PhoQ-PhoP variant library, with: 10 µM Mg2+; baseline: high Mg2+ state, higher = stronger signaling): 5.78
